Results collected from several papers.
Protocols differ between the studies behind these lines. Several values in a cell are separate wells, animals, samples, runs or records. ± gives the spread as reported.
SNCA oligomers: Alpha-synuclein, oligomers (SNCA, Homo sapiens, UniProt P37840)
SNCA fibrils: Alpha-synuclein, fibrils (SNCA, Homo sapiens, UniProt P37840)
SNCA filaments: Alpha-synuclein, filaments (SNCA, Homo sapiens, UniProt P37840)

SMILES | target | test | test system | conditions | quantity | result
O=C(O[C@@H]1Cc2c(O)cc(O)cc2O[C@@H]1c1cc(O)c(O)c(O)c1)c1cc(O)c(O)c(O)c1 | SNCA oligomers | oligomer-induced calcein release, inhibitor | DOPG liposomes |  | IC50 | 80 nM
CN(C)c1ccc(-c2ccc(/C=C/C=C3\Cc4ccc(O)cc4C3=O)cc2)cc1 | SNCA fibrils | fluorescence saturation binding | synthetic alpha-synuclein fibrils | 1 h | Kd | 236 ± 10.5 nM
COc1ccc(/C=C/C(=O)c2nc3ccccc3s2)cc1 | SNCA fibrils | fibril binding, thioflavin T competition |  | 1 µM fibrils, together with: thioflavin T 3 µM | Ki | 531 nM and 530 nM
CN(C)c1ccc(-c2cc3cc(Br)ccc3o2)cc1 | SNCA filaments | binding, radioligand displacement | α-synuclein fibrils | together with: 4 nM [3H]Me-BTA-1 | Ki | 4.78 ± 0.43 nM
O=C(/C=C/c1ccc([N+](=O)[O-])cc1)c1nc2ccccc2s1 | SNCA fibrils | fibril binding, thioflavin T competition |  | 1 µM fibrils, together with: thioflavin T 3 µM | Ki | > 500 nM
N#Cc1ccc(-c2ccc(/C=C/C=C3\Cc4ccc(O)cc4C3=O)cc2)s1 | SNCA fibrils | fluorescence saturation binding | synthetic alpha-synuclein fibrils | 1 h | Kd | 149 ± 20.6 nM
CNc1ccc(-c2nc3ccc(O)cc3s2)cc1 | SNCA filaments | radioligand displacement | α-synuclein filaments | together with: [3H]Me-BTA-1 4 nM | Ki | 16.5 ± 4.36 nM
O=C(OC[C@H]1O[C@@H](OC(=O)c2cc(O)c(O)c(O)c2)[C@H](OC(=O)c2cc(O)c(O)c(O)c2)[C@@H](OC(=O)c2cc(O)c(O)c(O)c2)[C@@H]1OC(=O)c1cc(O)c(O)c(O)c1)c1cc(O)c(O)c(O)c1 | SNCA oligomers | oligomer-induced calcein release, inhibitor | DOPG liposomes |  | IC50 | 10 nM
